{"data": "Results pooled from the literature", "GRK6": "G protein-coupled receptor kinase 6 (GRK6, Homo sapiens, UniProt P43250)", "note": "± marks the error that the study gave.", "sequence of UniProt P43250 (whole entry, looked up)": "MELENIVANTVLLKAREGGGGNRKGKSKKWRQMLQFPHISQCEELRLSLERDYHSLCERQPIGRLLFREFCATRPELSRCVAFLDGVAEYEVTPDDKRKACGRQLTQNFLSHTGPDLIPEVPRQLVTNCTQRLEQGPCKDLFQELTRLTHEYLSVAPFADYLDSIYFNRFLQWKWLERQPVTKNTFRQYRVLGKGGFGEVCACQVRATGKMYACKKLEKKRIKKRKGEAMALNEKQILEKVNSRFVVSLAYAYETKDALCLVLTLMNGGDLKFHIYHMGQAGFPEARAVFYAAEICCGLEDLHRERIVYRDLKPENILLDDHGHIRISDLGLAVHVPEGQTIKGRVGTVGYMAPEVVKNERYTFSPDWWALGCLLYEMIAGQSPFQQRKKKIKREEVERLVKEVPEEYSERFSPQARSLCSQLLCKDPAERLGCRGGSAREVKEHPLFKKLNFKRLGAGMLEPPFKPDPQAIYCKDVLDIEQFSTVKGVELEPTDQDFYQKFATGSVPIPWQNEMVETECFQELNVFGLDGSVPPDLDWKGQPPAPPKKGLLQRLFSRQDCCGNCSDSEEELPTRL", "sequence of UniProt P10721 (whole entry, unmodified, looked up)": "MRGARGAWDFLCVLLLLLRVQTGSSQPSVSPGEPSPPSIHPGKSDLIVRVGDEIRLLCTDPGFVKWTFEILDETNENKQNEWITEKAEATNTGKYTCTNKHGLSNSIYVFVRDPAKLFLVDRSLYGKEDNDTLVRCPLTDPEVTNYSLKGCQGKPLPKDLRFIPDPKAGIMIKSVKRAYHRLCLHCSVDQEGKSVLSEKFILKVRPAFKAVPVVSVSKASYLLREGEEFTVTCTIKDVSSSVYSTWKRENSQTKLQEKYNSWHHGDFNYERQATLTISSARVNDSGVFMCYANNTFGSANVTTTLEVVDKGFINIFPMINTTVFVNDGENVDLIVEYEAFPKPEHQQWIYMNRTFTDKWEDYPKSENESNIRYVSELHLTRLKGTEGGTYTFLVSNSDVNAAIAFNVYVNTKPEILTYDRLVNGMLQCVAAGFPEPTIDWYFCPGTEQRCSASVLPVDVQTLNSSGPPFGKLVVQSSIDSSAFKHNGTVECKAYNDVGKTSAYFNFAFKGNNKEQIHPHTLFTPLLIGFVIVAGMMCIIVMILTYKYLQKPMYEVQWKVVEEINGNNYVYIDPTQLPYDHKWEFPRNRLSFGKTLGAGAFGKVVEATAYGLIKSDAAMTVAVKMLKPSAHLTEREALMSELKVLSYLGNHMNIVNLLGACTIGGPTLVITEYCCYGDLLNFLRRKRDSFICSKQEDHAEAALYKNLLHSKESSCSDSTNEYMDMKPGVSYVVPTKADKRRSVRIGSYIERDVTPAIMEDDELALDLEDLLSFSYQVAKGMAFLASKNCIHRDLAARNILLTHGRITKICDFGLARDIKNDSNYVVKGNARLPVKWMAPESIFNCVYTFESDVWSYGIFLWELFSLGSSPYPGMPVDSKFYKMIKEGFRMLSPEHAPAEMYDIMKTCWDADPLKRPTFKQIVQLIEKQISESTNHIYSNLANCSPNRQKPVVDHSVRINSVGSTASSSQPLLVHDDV", "sequence of UniProt P05164 (whole entry, looked up)": "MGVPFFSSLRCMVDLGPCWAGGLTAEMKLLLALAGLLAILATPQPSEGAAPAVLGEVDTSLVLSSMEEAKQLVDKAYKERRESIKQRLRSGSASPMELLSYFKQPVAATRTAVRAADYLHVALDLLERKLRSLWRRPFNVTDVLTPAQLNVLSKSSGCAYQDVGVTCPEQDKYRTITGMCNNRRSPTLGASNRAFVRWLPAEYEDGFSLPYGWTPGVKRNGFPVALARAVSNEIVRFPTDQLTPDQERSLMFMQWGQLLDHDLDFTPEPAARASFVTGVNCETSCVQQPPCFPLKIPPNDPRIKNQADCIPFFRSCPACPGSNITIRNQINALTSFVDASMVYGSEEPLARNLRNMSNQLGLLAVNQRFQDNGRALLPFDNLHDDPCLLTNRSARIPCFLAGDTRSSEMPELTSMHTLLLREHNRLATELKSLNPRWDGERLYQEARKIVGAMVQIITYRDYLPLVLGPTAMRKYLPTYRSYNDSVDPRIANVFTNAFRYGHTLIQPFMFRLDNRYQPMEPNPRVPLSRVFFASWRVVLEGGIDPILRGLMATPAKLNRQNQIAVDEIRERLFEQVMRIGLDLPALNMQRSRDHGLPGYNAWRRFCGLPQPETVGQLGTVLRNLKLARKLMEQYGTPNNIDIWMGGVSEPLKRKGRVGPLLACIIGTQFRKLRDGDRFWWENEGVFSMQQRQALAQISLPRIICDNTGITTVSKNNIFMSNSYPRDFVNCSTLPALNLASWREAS", "sequence of UniProt P42337 (whole entry, looked up)": "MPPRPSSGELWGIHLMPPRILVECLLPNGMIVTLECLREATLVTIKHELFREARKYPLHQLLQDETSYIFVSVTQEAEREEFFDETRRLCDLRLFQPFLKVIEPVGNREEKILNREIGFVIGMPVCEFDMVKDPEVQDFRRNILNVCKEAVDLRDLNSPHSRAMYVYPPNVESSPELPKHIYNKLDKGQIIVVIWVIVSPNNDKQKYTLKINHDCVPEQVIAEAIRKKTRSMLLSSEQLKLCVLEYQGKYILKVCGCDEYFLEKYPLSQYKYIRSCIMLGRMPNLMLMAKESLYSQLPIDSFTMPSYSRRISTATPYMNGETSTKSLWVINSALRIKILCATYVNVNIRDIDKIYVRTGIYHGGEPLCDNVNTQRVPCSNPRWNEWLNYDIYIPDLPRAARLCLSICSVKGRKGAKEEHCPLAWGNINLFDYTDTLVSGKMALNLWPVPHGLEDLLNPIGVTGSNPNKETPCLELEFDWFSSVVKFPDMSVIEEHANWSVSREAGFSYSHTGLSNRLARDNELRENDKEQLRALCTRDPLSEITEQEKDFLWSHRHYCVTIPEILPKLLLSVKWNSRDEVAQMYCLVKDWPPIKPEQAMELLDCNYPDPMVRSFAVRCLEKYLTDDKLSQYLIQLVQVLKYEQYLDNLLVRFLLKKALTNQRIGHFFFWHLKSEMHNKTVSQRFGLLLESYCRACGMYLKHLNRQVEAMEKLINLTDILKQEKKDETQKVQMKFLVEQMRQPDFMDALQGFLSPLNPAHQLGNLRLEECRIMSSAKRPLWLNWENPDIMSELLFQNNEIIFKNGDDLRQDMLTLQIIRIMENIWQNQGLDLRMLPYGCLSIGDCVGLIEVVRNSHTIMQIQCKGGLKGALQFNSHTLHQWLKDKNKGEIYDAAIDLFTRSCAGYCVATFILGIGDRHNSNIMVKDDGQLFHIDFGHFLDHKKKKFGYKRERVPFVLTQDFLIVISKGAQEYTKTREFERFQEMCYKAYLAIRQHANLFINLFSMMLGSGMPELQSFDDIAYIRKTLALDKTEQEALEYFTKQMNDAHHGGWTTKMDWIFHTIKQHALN", "sequence of UniProt Q9NZJ5 (whole entry, looked up)": "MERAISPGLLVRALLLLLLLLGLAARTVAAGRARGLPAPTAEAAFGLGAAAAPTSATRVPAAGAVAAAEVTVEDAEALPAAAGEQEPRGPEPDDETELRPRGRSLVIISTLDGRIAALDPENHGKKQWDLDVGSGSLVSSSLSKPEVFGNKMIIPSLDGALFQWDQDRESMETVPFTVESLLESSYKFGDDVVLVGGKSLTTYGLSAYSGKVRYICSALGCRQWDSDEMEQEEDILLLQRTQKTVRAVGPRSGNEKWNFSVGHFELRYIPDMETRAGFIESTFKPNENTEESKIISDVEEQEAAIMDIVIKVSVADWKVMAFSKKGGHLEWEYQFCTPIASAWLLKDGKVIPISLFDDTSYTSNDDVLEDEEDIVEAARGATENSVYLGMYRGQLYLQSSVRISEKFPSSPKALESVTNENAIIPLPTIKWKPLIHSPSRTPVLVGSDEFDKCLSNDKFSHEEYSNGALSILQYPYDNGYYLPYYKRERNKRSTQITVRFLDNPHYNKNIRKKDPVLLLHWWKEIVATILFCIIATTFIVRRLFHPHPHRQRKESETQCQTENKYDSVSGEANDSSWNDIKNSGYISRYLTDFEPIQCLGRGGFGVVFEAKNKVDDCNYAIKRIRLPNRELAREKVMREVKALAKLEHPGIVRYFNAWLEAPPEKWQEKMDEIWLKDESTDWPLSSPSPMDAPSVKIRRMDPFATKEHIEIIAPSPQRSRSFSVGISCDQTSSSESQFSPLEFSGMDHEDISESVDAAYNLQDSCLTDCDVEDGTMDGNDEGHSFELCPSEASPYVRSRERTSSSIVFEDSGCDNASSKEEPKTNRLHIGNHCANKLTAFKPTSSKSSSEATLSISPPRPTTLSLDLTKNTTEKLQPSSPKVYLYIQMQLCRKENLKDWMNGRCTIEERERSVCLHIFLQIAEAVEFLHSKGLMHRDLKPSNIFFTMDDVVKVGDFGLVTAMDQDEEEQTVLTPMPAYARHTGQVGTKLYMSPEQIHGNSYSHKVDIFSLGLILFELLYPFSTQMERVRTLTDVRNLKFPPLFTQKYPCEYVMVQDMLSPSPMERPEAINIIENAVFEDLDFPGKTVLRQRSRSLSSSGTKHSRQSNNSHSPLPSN", "sequence of UniProt O75914 (whole entry, looked up)": "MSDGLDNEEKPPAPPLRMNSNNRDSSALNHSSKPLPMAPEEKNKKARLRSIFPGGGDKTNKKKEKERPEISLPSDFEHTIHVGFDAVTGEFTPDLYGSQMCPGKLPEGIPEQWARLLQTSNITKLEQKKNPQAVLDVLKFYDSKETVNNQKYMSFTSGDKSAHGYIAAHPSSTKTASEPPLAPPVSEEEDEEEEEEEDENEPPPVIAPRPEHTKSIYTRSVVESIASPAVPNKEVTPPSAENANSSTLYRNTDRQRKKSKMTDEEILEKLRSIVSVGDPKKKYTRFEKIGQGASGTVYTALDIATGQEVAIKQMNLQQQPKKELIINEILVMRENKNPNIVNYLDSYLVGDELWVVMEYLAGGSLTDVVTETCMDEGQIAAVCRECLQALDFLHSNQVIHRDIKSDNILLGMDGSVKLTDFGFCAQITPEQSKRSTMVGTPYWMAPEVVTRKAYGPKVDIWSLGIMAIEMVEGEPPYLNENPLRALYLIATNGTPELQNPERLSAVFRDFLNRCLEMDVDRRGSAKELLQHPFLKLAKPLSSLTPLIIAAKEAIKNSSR"}
{"Compound": "Cc1cc(Nc2cc(N3CCN(C)CC3)nc(Sc3ccc(NC(=O)C4CC4)cc3)n2)[nH]n1", "target": "EIF2AK3 (Homo sapiens, UniProt Q9NZJ5)", "assay": "kinase activity, KinaseProfiler", "conditions": "0.03 µM, species human", "how to read": "reference: control", "remaining activity": "103%"}
{"Compound": "CC(C)OCCn1c(=S)[nH]c(=O)c2[nH]ccc21", "target": "Myeloperoxidase (MPO, Homo sapiens, UniProt P05164)", "assay": "chlorination activity, iodide-catalysed TMB HOCl production", "conditions": "10 µM", "how to read": "reference: control", "remaining activity": "3.8%"}
{"Compound": "C=CC(=O)N1CCC[C@@H](n2nc(-c3ccc(Oc4ccccc4)cc3)c3c(N)ncnc32)C1", "target": "FLT1 (Homo sapiens, UniProt P17948)", "conditions": "0.1 µM", "remaining activity": "68.6%"}
{"Compound": "COc1cc(-c2cncc3c2CN(C)Cc2cc(N4CCNCC4)ccc2-3)cc(OC)c1OC", "target": "KIT (Homo sapiens, UniProt P10721)", "assay": "kinase activity", "conditions": "1 µM, human enzyme, together with: ATP 10 µM", "how to read": "reference: DMSO control", "remaining activity": "107%"}
{"Compound": "O=C(O)c1ccc(Nc2ncc3c(n2)-c2ccc(Cl)cc2C(c2c(F)cccc2F)=NC3)cc1", "target": "human IR(h)", "assay": "kinase activity", "conditions": "1 µM", "remaining activity": "88%"}
{"Compound": "CNCC(=O)O", "target": "Sodium- and chloride-dependent glycine transporter 2 (Homo sapiens, UniProt Q9Y345)", "assay": "glycine uptake, inhibitor, [3H]glycine uptake", "conditions": "4000 µM, log concentration 4, together with: [3H]glycine", "how to read": "reference: no inhibitor", "remaining activity": "87.8%"}
{"Compound": "CNc1ncc2c(/C=C/C(=O)N3CCC(OC)CC3)nn(Cc3cccc(C(F)(F)F)c3)c2n1", "target": "PAK3 (Homo sapiens, UniProt O75914)", "assay": "kinase activity, inhibitor", "conditions": "1 µM", "how to read": "reference: untreated control", "remaining activity": "86%"}
{"Compound": "COc1cc(N2CCN(C)CC2)ccc1Nc1nc(N)n(C(=S)NCc2c(Cl)cccc2Cl)n1", "target": "DYRK1A (Homo sapiens, UniProt Q13627)", "assay": "enzyme activity", "conditions": "10 µM", "how to read": "reference: control", "remaining activity": "6.8%"}
{"Compound": "Cc1ccc(NC(=O)c2ccc(C)c(C(F)(F)F)c2)cc1C#Cc1nn(C2CCC(O)CC2)c2ncnc(N)c12 (stereo not shown)", "target": "Phosphatidylinositol 4,5-bisphosphate 3-kinase catalytic subunit alpha isoform, with p85 alpha (Pik3ca, Mus musculus, UniProt P42337)", "assay": "enzyme activity, inhibitor", "conditions": "10 µM, p110a/p85a)(m mouse, together with: ATP 10 µM", "remaining activity": "90%"}
{"Compound": "O=C(NC1CCC1)c1ccc2nc(-c3cccc(NS(=O)(=O)NCCN4CCCCC4)c3)cn2c1", "target": "KIT (Homo sapiens, UniProt P10721, V559D)", "assay": "enzyme activity", "conditions": "10 µM", "remaining activity": "97%"}
{"Compound": "Cc1cc(NC(=O)c2cccc(NC(=O)/C=C/CN(C)C)c2)ccc1Nc1nccc(-c2cccnc2)n1", "target": "MAPK8 (Homo sapiens, UniProt P45983)", "assay": "enzyme activity, inhibitor", "conditions": "0.06097 µM, 6 h, unit not given, together with: GSH 10 mM pre-incubation", "how to read": "reference: vehicle", "remaining activity": 0.986}
{"Compound": "O=c1cc(-c2ccccc2)nc2cc(-c3ccco3)[nH]n12", "target": "BLVRB (Homo sapiens, UniProt P30043)", "conditions": "concentration not given", "remaining activity": "85%"}
{"Compound": "CC#CC(=O)N1CCC[C@H]1c1nc(-c2ccc(C(=O)Nc3ccccn3)cc2)c2c(N)nccn12", "target": "GRK6", "assay": "kinase activity, inhibitor, HotSpot radiometric", "conditions": "100 nM, together with: ATP 10 µM", "remaining activity": "105 ± 1.7%"}
{"Compound": "COc1cc(F)ccc1-c1ncnc(Nc2cccc(C[S@](C)(=N)=O)c2)n1", "target": "GRK6", "assay": "kinase activity", "conditions": "10 µM, together with: 10 µM ATP", "remaining activity": "104%"}
{"Compound": "COc1ccc(F)cc1C(=O)NCc1ccc(-c2nn([C@@H](C)C(F)(F)F)c(N)c2C(N)=O)cc1", "target": "GRK6", "assay": "kinase activity, inhibitor, HotSpot radiometric", "conditions": "1000 nM, together with: ATP at Km", "remaining activity": "101 ± 1.8%"}
{"Compound": "COc1cc(Nc2ncc3c(n2)-c2ccc(Cl)cc2C(c2c(F)cccc2OC)=NC3)ccc1C(=O)O", "target": "ERBB2", "assay": "kinase activity", "conditions": "1 µM", "remaining activity": "65%"}
{"note": "Some of these lines once more:"}
{"Compound": "Cc1ccc(NC(=O)c2ccc(C)c(C(F)(F)F)c2)cc1C#Cc1nn(C2CCC(O)CC2)c2ncnc(N)c12 (stereo not shown)", "target": "Phosphatidylinositol 4,5-bisphosphate 3-kinase catalytic subunit alpha isoform, with p85 alpha (Pik3ca, Mus musculus, UniProt P42337)", "assay": "enzyme activity, inhibitor", "conditions": "10 µM, p110a/p85a)(m mouse, together with: ATP 10 µM", "remaining activity": "90%"}
{"Compound": "CC#CC(=O)N1CCC[C@H]1c1nc(-c2ccc(C(=O)Nc3ccccn3)cc2)c2c(N)nccn12", "target": "GRK6", "assay": "kinase activity, inhibitor, HotSpot radiometric", "conditions": "100 nM, together with: ATP 10 µM", "remaining activity": "105 ± 1.7%"}
{"Compound": "Cc1cc(NC(=O)c2cccc(NC(=O)/C=C/CN(C)C)c2)ccc1Nc1nccc(-c2cccnc2)n1", "target": "MAPK8 (Homo sapiens, UniProt P45983)", "assay": "enzyme activity, inhibitor", "conditions": "0.06097 µM, 6 h, unit not given, together with: GSH 10 mM pre-incubation", "how to read": "reference: vehicle", "remaining activity": 0.986}
